Results collected from several papers.
Each line is one published result; not all experiments were run side by side. Numbers after ± are the reported error. In brackets after ≈: the same amount, converted by molar mass.
Ephx2: Bifunctional epoxide hydrolase 2 (Ephx2, Mus musculus, UniProt P34914)
UniProt P34914, sequence (whole entry, looked up): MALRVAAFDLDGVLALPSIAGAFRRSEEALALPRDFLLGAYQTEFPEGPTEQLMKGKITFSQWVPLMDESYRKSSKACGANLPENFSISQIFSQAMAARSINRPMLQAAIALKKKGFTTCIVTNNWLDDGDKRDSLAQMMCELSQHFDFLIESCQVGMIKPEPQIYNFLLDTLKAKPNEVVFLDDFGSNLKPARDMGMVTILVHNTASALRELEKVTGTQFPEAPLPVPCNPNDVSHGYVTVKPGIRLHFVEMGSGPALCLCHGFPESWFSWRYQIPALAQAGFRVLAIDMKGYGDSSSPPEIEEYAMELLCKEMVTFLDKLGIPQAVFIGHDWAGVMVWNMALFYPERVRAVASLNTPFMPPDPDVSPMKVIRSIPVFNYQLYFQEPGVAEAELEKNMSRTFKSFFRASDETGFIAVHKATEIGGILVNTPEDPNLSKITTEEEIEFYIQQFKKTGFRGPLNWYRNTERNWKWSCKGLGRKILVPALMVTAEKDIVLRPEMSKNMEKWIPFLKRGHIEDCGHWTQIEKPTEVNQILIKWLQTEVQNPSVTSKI
UniProt Q12809, sequence (whole entry, looked up): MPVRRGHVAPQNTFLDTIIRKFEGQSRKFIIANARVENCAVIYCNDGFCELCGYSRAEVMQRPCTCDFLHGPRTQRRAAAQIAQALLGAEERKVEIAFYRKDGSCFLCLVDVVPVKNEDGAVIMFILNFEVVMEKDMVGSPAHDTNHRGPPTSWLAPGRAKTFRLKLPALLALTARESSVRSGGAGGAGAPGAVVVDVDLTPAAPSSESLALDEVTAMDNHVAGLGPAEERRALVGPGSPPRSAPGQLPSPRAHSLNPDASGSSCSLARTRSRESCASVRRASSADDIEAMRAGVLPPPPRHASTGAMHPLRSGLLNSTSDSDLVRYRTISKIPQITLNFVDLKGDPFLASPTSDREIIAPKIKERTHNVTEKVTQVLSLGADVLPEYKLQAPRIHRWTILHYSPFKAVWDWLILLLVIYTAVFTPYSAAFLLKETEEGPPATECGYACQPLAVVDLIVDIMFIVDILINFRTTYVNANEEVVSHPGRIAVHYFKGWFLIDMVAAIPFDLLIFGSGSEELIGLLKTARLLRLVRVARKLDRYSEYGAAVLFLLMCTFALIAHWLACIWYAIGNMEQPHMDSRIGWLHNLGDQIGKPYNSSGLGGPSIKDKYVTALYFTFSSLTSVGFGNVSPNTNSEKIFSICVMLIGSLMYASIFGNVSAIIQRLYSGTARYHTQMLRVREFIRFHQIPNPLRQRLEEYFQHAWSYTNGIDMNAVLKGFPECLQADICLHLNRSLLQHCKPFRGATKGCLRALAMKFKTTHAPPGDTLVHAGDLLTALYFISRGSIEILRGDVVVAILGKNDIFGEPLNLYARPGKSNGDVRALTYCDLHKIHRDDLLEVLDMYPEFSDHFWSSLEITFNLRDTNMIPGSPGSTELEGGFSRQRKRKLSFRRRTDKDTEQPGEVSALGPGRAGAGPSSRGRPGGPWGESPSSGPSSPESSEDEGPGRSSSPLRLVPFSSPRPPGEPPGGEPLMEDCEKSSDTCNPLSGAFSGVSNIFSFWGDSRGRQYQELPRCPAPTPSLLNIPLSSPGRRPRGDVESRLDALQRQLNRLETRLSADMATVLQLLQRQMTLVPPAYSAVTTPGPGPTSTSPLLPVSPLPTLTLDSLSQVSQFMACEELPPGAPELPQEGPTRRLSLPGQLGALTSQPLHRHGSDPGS
UniProt P04798, sequence (whole entry, looked up): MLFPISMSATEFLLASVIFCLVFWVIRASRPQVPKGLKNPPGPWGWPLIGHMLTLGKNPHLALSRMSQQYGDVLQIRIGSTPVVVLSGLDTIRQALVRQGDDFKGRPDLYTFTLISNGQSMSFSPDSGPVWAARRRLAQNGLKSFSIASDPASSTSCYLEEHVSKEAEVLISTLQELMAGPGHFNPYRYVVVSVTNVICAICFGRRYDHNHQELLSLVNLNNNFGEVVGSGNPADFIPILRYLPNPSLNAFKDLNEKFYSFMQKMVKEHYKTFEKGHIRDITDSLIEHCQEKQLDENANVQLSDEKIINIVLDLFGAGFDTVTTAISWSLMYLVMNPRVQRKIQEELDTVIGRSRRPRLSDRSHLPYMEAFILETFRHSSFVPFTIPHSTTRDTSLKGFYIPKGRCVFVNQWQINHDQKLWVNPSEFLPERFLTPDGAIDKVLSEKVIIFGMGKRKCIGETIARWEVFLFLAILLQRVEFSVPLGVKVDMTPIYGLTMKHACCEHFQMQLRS
UniProt P49888, sequence (whole entry, looked up): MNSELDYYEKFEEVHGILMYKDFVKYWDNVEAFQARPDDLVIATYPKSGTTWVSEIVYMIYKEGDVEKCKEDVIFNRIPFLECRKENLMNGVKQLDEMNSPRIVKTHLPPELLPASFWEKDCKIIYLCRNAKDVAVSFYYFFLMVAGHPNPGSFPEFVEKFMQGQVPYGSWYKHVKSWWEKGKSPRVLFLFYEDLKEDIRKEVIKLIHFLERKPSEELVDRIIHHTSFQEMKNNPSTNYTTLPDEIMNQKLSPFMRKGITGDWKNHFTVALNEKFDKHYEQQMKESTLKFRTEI

CN1CC[C@]23c4c5ccc(O)c4O[C@H]2C(=O)CC[C@H]3[C@H]1C5  specific activity (SULT1E1 (Homo sapiens, UniProt P49888); substrate; 50 µM, 10 min, pH 7.5, 37 °C): 0.18 ± 0.03 nmol/min/mg
O=c1cc(-c2ccccc2)oc2c1ccc1ccccc12  IC50 (Cytochrome P450 1A1 (CYP1A1, Homo sapiens, UniProt P04798); enzyme activity, inhibitor; 20 min): 860 ± 60 nM
O=C(Nc1ccc(-c2ccc3ccccc3n2)cc1)C1CCN(Cc2ccc(F)cc2F)CC1  solubility (sodium phosphate buffer, 1% DMSO; pH 7.4): 31 to 63 µM (≈ 14.2 to 28.8 µg/mL)
Cc1cc(OCc2nnc(SC3CCCC3)n2-c2cccnc2)ccc1-c1ccc(S(C)(=O)=O)cc1  GI50 (UACC-257): 899 nM
O=C(Nc1ccc(-c2cnc3ccccc3c2)cc1)C1CCN(Cc2cccc([N+](=O)[O-])c2)CC1  solubility (sodium phosphate buffer, 1% DMSO; pH 7.4): 31 to 63 µM (≈ 14.5 to 29.4 µg/mL)
C(#Cc1c[nH]c2nccc(-c3ccncc3)c12)c1cccnc1  half-life (mouse C57BL/6, male; intravenous, 2 mg/kg): 28.2 ± 16.8 min
O=C(Nc1ccc(-c2cnc3ccccc3c2)cc1)C1CCN(CC2CCCCC2)CC1  solubility (sodium phosphate buffer, 1% DMSO; pH 7.4): 63 to 125 µM (≈ 26.9 to 53.4 µg/mL)
Cc1ccc(S(=O)(=O)Nc2c(N3CCC(NC(=O)Nc4ccc(F)c(Cl)c4)CC3)c(=O)c2=O)cc1  IC50 (Ephx2): 193 ± 20.5 nM
CN1CCN(c2ccc(Nc3cc(-c4cccc(N5CCc6c(sc7c6CC(C)(C)C7)C5=O)c4CO)cn(C)c3=O)nc2)CC1  fraction unbound (human pooled plasma; 4 h): 0.02
Cc1cc(/C=C/C#N)cc(C)c1Oc1nc(Nc2ccc(C#N)c(F)c2)nc2ccsc12  inhibition (KCNH2 (Homo sapiens, UniProt Q12809); ion current, inhibitor; 3 µM): 13.3%
Cc1ccc(S(=O)(=O)Nc2c(N3CCC(NC(=O)Nc4ccc(OC(F)(F)F)cc4)CC3)c(=O)c2=O)cc1  IC50 (Ephx2): 76.1 ± 10.1 nM
C=CC(=O)N1CC[C@H](n2nc(C#Cc3cc(OC)cc(OC)c3)c3c(N)ncnc32)C1  free AUC (mouse; 3 mg/kg): 44 ng·h/mL

A few entries again:
CN1CCN(c2ccc(Nc3cc(-c4cccc(N5CCc6c(sc7c6CC(C)(C)C7)C5=O)c4CO)cn(C)c3=O)nc2)CC1  fraction unbound (human pooled plasma; 4 h): 0.02
Cc1cc(/C=C/C#N)cc(C)c1Oc1nc(Nc2ccc(C#N)c(F)c2)nc2ccsc12  inhibition (KCNH2 (Homo sapiens, UniProt Q12809); ion current, inhibitor; 3 µM): 13.3%
